Measurements of several laboratories.
Lines come from different studies, so protocols differ. Several values in a cell are separate wells, animals, samples, runs or records. ± gives the spread as reported.

Structure (SMILES) | test | system | conditions | scale | measurement | value
C=CC(=O)N1CCCC(n2c(=O)c3ncccc3n(Cc3ccc(Oc4ccccc4)cc3)c2=O)C1 (centres unmarked) |  | male BALB/c mouse, plasma | intraperitoneal, 200 mg/kg, 2 h |  | concentration | 37800 ng/mL
CC(C)n1ncc2c(C(=O)NC[C@@H](C)N)cc(C3CC3)nc21 | metabolic stability | mouse, liver microsomes |  |  | scaled CLint | < 38 mL/min/kg
CN1CCCNC(=O)c2cccc(c2)C(=O)NCCCN(C)CCCNc2cccc3c2C(=O)c2cccc(c2C3=O)NCCC1 |  | mouse xenograft model | dose not given, day 8 |  | body weight | 26 g and 31 g
CCC1CNC(CC)CN(C(C(=O)[O-])c2ccc(C(=O)[O-])cc2)C(CC)CN(CC(=O)[O-])C(CC)CN1.[Mn+2] (centres unmarked) | ICP-MS | BALB/c mouse, brain | intravenous, 0.05 mmol/kg, 30 min, without anaesthesia |  | Mn content | 0.64 ± 0.02 µg/g
CN(C)S(=O)(=O)c1ccc(S(=O)(=O)N2CCC(n3c(=O)[nH]c4ccccc43)CC2)cc1 |  | mouse | intraperitoneal, 6 mg/kg, 4 day | baseline: day 0 | body weight | 99.6%
[11CH3]N1CCC(NC(=O)c2cc(-c3c(O)cc(O)cc3Oc3ccc([N+](=O)[O-])cc3)on2)CC1 |  | Wistar rat, female, healthy, spleen | intravenous, 18.5 MBq, 30 min |  | SUV | 1.4 ± 0.1
Cc1nc(N)nc2c1C(=O)N[C@@H](c1ccc(F)cc1-c1cccc(O[11CH3])n1)C2 | ex vivo biodistribution | mice, U87 subcutaneous xenograft, brain | 60 min post-injection, baseline, vehicle pre-treatment |  | SUV | 2.1 ± 0.2
C=CC(=O)Nc1cc(Nc2nccc(-c3c[nH]c4ccccc34)n2)c(OC)cc1N(C)CCN(C)C | storage stability | human plasma | 2 h, on ice, HQC level |  | recovery | 96.2%
CC(C(=O)O)n1nc(Cn2cc3cc(OCC[18F])c(Cl)cc3n2)c2ccccc2c1=O (racemic) |  | rat, spleen | 30 min |  | tracer uptake | 0.18 %ID/g
COc1cccc(OC)c1-c1cc(C(=O)NC2(C(=O)O)C3CC4CC(C3)CC2C4)nn1-c1ccc(C(=O)NCCNC(=O)[C@H](CCCCNC(=O)[C@H](CC(C)C)NC(=O)C2OC2C(=O)O)NC(=O)CN2CCN(CC(=O)[O-])CCN(CC(=O)[O-])CCN(CC(=O)[O-])CC2)cc1C(C)C.[177Lu+3] (mixture of isomers) |  | mouse, HT-29 xenograft, lung | 168 h post injection |  | tissue uptake | 0.9 %ID/g
C#CCOCCOCCOCCOCCn1cc(C(ONC(=O)/C=C/C(C)=C/C2(C)Oc3cc(N(C)C)ccc3C2=O)(c2ccc(C)cc2)c2ccc(C)cc2)nn1 (centres unmarked) | HPLC | aqueous buffer, 20% acetonitrile | concentration not given, 76 min, pH 3 | baseline: initial prodrug amount | release from prodrug hydrolysis | 78.7%
CNc1cc(N)c(C(N)=O)cn1 |  | Han Wistar rats, male, plasma | oral, 30 mg/kg, 2.00 h |  | concentration at time | 13.6 µM
CN1CCC[C@]1(C)/C=C/S(=O)(=O)NC(=O)Nc1c2c(cc3c1C(O)CC3)CCC2 (some centres unmarked) |  | human, plasma | oral, 50 mg twice daily of parent drug, day 14, metabolite of dosed drug |  | Cmax at first steady-state dose | 11300 ng/mL
CCc1cnc(NC(=O)c2cc(S(=O)(=O)N3CCOCC3)ccc2N(C)C2CCCC2)s1 |  | mouse, serum | 10 mg/kg, 3 doses |  | Potassium | 9.2 mEq/L
CC(C)(O)c1ncc([S@](N)(=O)=NC(=O)Nc2c3c(cc4c2CCC4)CCC3)s1 | measured: infections and infestations | healthy human | oral, 600 mg, SDD formulation |  | subjects with TEAEs | 17%
COCC1CN(C2CCN(c3cc(OC)c(Nc4ncc(Br)c(Nc5ccc6c(c5P(C)(C)=O)OCCO6)n4)cc3C)CC2)C1 |  | EGFR-mutant NSCLC patients, plasma | oral, 90 mg single dose, geometric mean |  | Cmax | 508 ng/mL
COc1cc(N2CCN(C(=O)C3CCCN3)CC2)ccc1Nc1ncc(Cl)c(Nc2ccccc2P(C)(C)=O)n1 (centres unmarked) |  | nude mice, NCI-H3122 xenograft | oral, dose not given, day 9 |  | body weight | 23.5 g and 24.8 g and 24.3 g and 22.2 g and 23 g
C[C@H](C(=O)O)c1ccc(-c2ccccc2)c(F)c1 | HPLC | sample solution | concentration not given, 12 h, room temperature, solution stability |  | peak area change | ≤ 2%
Cc1c(Cc2ccc(F)c(OC(C)C(=O)O)c2)c2ccc(C(=O)NC(C)c3ccc(C(C)(C)C)cc3)cc2n1CC1CCC1 (centres unmarked) |  | mouse liver microsomes | 1 µM, added: microsomes 1 mg/mL |  | half-life | > 1 h
C/C(N)=N/C(=N\S(=O)(=O)c1ccc(C(F)(F)F)cc1)N1C[C@H](c2ccccc2)C(c2ccc(Cl)cc2)=N1 |  | male C57BL/6 mouse, liver | intravenous, 10 mg/kg |  | half-life | 2.6 h
N#C[C@@H]1CC(F)(F)CN1C(=O)CNC(=O)c1ccnc2c(NC(=O)[C@H](CCCCNC(=O)CCOCCOCCOCCOCCOCCOCCNC(=O)CN3CCN(CC(=O)[O-])CCN(CC(=O)[O-])CCN(CC(=O)[O-])CC3)NC(=O)CCCc3ccc(I)cc3)cccc12.[177Lu+3] |  | mouse, U-87 MG tumour xenograft, kidneys | 48 h |  | tissue uptake | 0.87 ± 0.36 %ID/g
COc1ccc(C(N)=O)cn1 |  | Han Wistar rats, male, plasma | oral, 30 mg/kg, 0.50 h |  | concentration at time | 139 µM

Structure (SMILES) | test | system | conditions | scale | measurement | value
O=C(Nc1cccc(CO)c1)c1cc(-c2ccccc2)n(-c2ccccc2)n1 |  | human liver microsomes | 4 h |  | depletion | < 15%
Cc1nn(-c2nc3c(F)cc(F)cc3s2)c(O)c1C(c1ccc(C(F)(F)F)cc1)c1c(C)nn(-c2nc3c(F)cc(F)cc3s2)c1O |  | ICR mouse, plasma | intraperitoneal, 10 mg/kg |  | apparent terminal volume of distribution (Vz/F, observed) | 3.06 L/kg and 4.28 L/kg and 2.71 L/kg
C=C(NC(=O)c1csc(-c2nc3c(cc2O)-c2nc(cs2)C(=O)NC(C(C)O)C(=O)NC(=C(C)OC)c2nc(cs2)C(=O)NC2c4nc(cs4)C(=O)NC(COC(=O)c4c5c6c(cccc6n4O)COC(=O)C(OC4CC(C)(O)C(N(C)C)C(C)O4)C2OC5)c2nc-3cs2)n1)C(N)=O (centres unmarked) |  | Sprague-Dawley rat, male, plasma | intravenous infusion, 6 mg/kg, multiple doses, day 7 |  | Tmax | 0.1 h
OC1(C(F)(F)F)CCN(c2nc(Nc3ccnc(C(F)(F)F)c3)nc(-c3cccc(C(F)(F)F)n3)n2)C1 (centres unmarked) |  | Sprague-Dawley rat, both sexes, plasma | oral gavage, 5 mg/kg, day 14 |  | Tmax | 5 ± 1.1 h
CCCCN1C(=O)c2cccc3c(NCCN4CCOCC4)ccc(c23)C1=O |  | ethyl acetate |  |  | fluorescence lifetime | 9.4 ns
CC(C)C[C@@H]1NC(=O)[C@H](CCCCN)NC(=O)C(N)CCC=CCCCC(C(N)=O)NC(=O)[C@H](CCCCN)NC(=O)[C@H](CC(C)C)NC(=O)[C@H](CCCCN)NC(=O)C2CCCC=CCCC(NC(=O)[C@H](CCCCN)NC1=O)C(=O)N[C@@H](CCCCN)C(=O)N1CCC[C@@H]1C(=O)NCC(=O)N[C@@H](CCCCN)C(=O)N2 (some centres unmarked) | RP-HPLC C18 |  | hydrophobicity |  | retention time | 13.8 min
CCCC[C@H](OC(C)=O)c1ccccc1C(=O)O |  | beagle dogs, both sexes, whole blood | intravenous, 1.5 mg/kg single dose, 1 min |  | blood concentration | 3950 ± 591 ng/mL
C=CC(=O)Nc1cc(Nc2nccc(-c3cn(C)c4ccccc34)n2)c(OC)cc1N(C)CCNC | storage stability | human dried blood spot | 30 d, on ice, MQC level |  | recovery | 58.1%
O=C(NS(=O)(=O)c1cccs1)c1cc2ccccc2n1Cc1ccc(Br)c2ccccc12 |  | KM mouse, chronic hyperuricaemia model | dose not given, day 25 |  | body weight | 37.4 g and 40.2 g and 38.4 g and 34.6 g
CN(O)C(=O)CCC(=O)NCCCN(CCCCN(CCCNC(=O)CCC(=O)N(C)O)C(=O)CCC(=O)N(C)O)C(=O)CCC(=O)N(C)O.[89Zr] |  | mouse, kidney | 4 h |  | tracer uptake | 2.44 %ID/g
CCCCN1C(=O)c2cccc3c(NCCCCCCN4CCOCC4)ccc(c23)C1=O |  | methanol |  |  | fluorescence quantum yield | 0.73
O=S(=O)(NCc1ccncc1)c1ccc(C2CCCCC2)cc1 |  | CK mouse | 0.3 mg/kg | baseline: vehicle | swim speed change | 15 ± 1 cm/s
O=C([O-])CN1CCN(CC(=O)[O-])CCN(CC(O)CN(CC(O)CN2CCN(CC(=O)[O-])CCN(CC(=O)[O-])CCN(CC(=O)[O-])CC2)C[C@H](O)[C@@H](O)[C@H](O)[C@H](O)CO)CCN(CC(=O)[O-])CC1.[Gd+3] (some centres unmarked) | pH-potentiometry, measured: Gd(HL)M, M = Zn2+ |  | 25 °C, 0.15 M NaCl |  | log K | 5.32
CN([O-])C(=O)CN1CCNCCN(CC(=O)N(C)[O-])CC1.[89Zr+4] |  | mouse, pancreas | intravenous, 4 h |  | tracer uptake | 0.12 %ID/g
O=C(Nc1cnccc1-c1ccc([18F])nc1)c1ccnc(NC(=O)C2CC2)c1 |  | FVB/NJ mice, both sexes, liver | intravenous, 30 min, median, no P-gp inhibitor |  | SUV | 8.85
CN1C(=O)[C@@H](Cc2ccc(O)c(I)c2)NC(=O)CNC(=O)[C@H](Cc2ccc3ccccc3c2)NC(=O)[C@H](CCCNC(=N)N)NC(=O)[C@H]1CCCNC(=O)c1ccc(CNC(=O)CN2CCN(CC(=O)O)CCN(CC(=O)O)CCN(CC(=O)O)CC2)cc1 [lutetium-177 labelled] | 2 | human, extrapolated from mouse, Urinary bladder wall |  |  | total absorbed dose | 0.00086 mGy/MBq
CSCC[C@H](N)C(=O)N[C@@H](CO)C(=O)N[C@H](C(=O)N[C@@H](C)C(=O)NCC(=O)N[C@@H](CC(C)C)C(=O)N[C@@H](CCCCN)C(=O)N[C@@H](CCCCN)C(=O)N[C@@H](CCC(N)=O)C(=O)N[C@@H](Cc1c[nH]c2ccccc12)C(=O)N[C@@H](Cc1ccc(O)cc1)C(=O)N[C@@H](CCCCN)C(=O)N[C@@H](C)C(=O)N[C@@H](CO)C(=O)N[C@@H](CCC(N)=O)C(=O)N[C@@H](CC(C)C)C(=O)N[C@H](C(=O)N[C@@H](CO)C(=O)N[C@@H](CCC(=O)O)C(=O)N[C@@H](CCCCN)C(=O)N[C@H](C(=O)NCC(=O)NCC(=O)N[C@@H](C)C(N)=O)C(C)C)C(C)C)C(C)C | circular dichroism titration | 100% DOPS liposomes | 50 µM, pH 7.4, 20 °C |  | ΔG of binding | -7.4 kcal/mol
Cc1cc(-c2ccc(C(=O)[C@@H]3CCCC[C@H]3C(=O)Nc3cnn4c3C(=O)NCC4)cc2)[nH]n1 |  | human, faeces | oral, 200 mg, 48-72 h | baseline: dose | recovery of radioactivity per interval | 25.3%
COc1ccc2c(c1)CCn1c[n+]3c(c1-2)-c1ccc(OC)cc1CC3 |  | female NSG mice, blood | 6 mg/kg, day 14, 5 days per week |  | Basophils | 0%
CC(C)[C@H](NC(=O)[C@H](Cc1c[nH]c2ccccc12)NC(=O)[C@H](CCCNC(=N)N)NC(=O)[C@H](CCCNC(=N)N)NC(=O)[C@@H](NC(=O)[C@@H](NC(=O)[C@H](CCCNC(=N)N)NC(=O)[C@@H](NC(=O)[C@@H](NC(=O)[C@H](CCCNC(=N)N)NC(=O)[C@H](CCCNC(=N)N)NC(=O)[C@@H](NC(=O)[C@H](Cc1c[nH]c2ccccc12)NC(=O)[C@H](CCCNC(=N)N)NC(=O)[C@H](CCCNC(=N)N)NC(=O)[C@@H](NC(=O)[C@H](CCCNC(=N)N)NC(=O)[C@H](CCCNC(=N)N)NC(=O)[C@@H](NC(=O)[C@H](Cc1c[nH]c2ccccc12)NC(=O)[C@H](CCCNC(=N)N)NC(=O)[C@@H](N)CCCNC(=N)N)C(C)C)C(C)C)C(C)C)C(C)C)C(C)C)C(C)C)C(C)C)C(=O)N[C@@H](CCCNC(=N)N)C(=O)N[C@@H](CCCNC(=N)N)C(=O)O |  | CD1 mouse, urine | intravenous, 15 mg/kg, 6 h, [14C]-labelled compound |  | creatinine | 8.7 mg/dL
O=C(Nc1cnccc1-c1ccc([18F])cc1)c1ccnc(NC(=O)C2CC2)c1 | ex vivo gamma counting | GSK-3β transgenic mice, late-stage, cortex | intravenous, 120 min, mean, P-gp inhibitor pretreatment, added: tariquidar 15 mg/kg iv |  | SUV | 0.22
O=C([O-])CN1CCN(CC(=O)[O-])CCN(CC(CCCc2ccccc2[N+](=O)[O-])N(CC(=O)[O-])CC(=O)[O-])CC1.[177Lu+3] (centres unmarked) | HPLC | human serum | 3 h, pH 7, 37 °C |  | intact radiolabelled complex | 100%

Excerpt of the above:
Structure (SMILES) | test | system | conditions | scale | measurement | value
CCc1cnc(NC(=O)c2cc(S(=O)(=O)N3CCOCC3)ccc2N(C)C2CCCC2)s1 |  | mouse, serum | 10 mg/kg, 3 doses |  | Potassium | 9.2 mEq/L
CC(C)(O)c1ncc([S@](N)(=O)=NC(=O)Nc2c3c(cc4c2CCC4)CCC3)s1 | measured: infections and infestations | healthy human | oral, 600 mg, SDD formulation |  | subjects with TEAEs | 17%
COCC1CN(C2CCN(c3cc(OC)c(Nc4ncc(Br)c(Nc5ccc6c(c5P(C)(C)=O)OCCO6)n4)cc3C)CC2)C1 |  | EGFR-mutant NSCLC patients, plasma | oral, 90 mg single dose, geometric mean |  | Cmax | 508 ng/mL
